Measured values of several laboratories.
Every numbered part comes from another study and shows a few of its results, in no order.

Block 1
Organism: Sarcocystis neurona
Effect on: parasite growth
Tested at: 10 µM
Setting: secondary screen
| SMILES | inhibition |
| --- | --- |
| Cc1c(O)c(=O)ccn1C | -38.7% |
| CN(C)c1ccc(O)c2c1C[C@H]1C[C@H]3[C@H](N(C)C)C(O)=C(C(N)=O)C(=O)[C@@]3(O)C(O)=C1C2=O | 13.4% |
| C[C@@H](O)[C@H]1C(=O)N2C(C(=O)O)=C(S[C@@H]3CN[C@H](C(=O)N(C)C)C3)[C@H](C)[C@H]12 | -57.8% |

Block 2
Target: RNA binding protein fox-1 homolog 2, RRM domain, GST-SBP tag (RBFOX2, Homo sapiens, UniProt O43251-10, residues 100-194)
Technique: RNA Bind-n-Seq
Molecule type: RNA
Sample: in vitro
Tested at: 365 nM
Setting: natural RNA segment, single round, ends assumed
Reference: no-protein control
Reading: higher = stronger binding
Shared flanks, not repeated: GGGAGUUCUACAGUCCGACGAUC … UGGAAUUCUCGGGUGCCAA
Residues (chain): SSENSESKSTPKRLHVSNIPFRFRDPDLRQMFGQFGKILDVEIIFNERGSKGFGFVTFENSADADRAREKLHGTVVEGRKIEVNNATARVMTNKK
| Sequence | RBNS enrichment (R) |
| --- | --- |
| UCAGGCCACACCAGGUUCCCUCUGCAAGGGCCUCGGCUCAGUCGUGUGCACUUCCUCGGAGAGCCUUGGGCUGCCACGUCCACCCCGGGCUCUGCCCGUCCUGUUCUGCC | 0.244 |
| UCGCCUAUUAUACAAACACACAAAACAUUUUUGGAGGCCUCAGUUAUGAGUGACAGAGCUUUCUGUGUAUAAUUUGUCUAAAUAAUUUGUCUAAUAAAAAUGUUUUCUAA | 0.667 |
| ACCUUAAAGUACUGUUCUUUAUUUAAUAAGAUACGCUACUACAUUGCUUUGUUUAUAAAUAGUUUAUGGGAAAUUUGCACUUAGUAUGUUUUGAAUAAUGACCACGCAUG | 1.46 |
| UACAAGGACCUGCUUUUUAAAAGGCCAGAACAAUUGUCUGAAAUUAGUAACAAUGCUGCAUCUAGAUUGGAGUGCUGCACAAACAAACAUAAGAGCAAAGCAAAACUGUA | 0.665 |
| AAGUGGGACGGAUGAUGAGUGUCAGUAUGGACCUUUUUCCUUGGUAGAACUGAAUUCCUUCCUCCCCUGUCUCAUUUCUACCCAGUGAGUUCAUUUGUCAUAUAGGCACU | 0.693 |
| GCCGUGAGUUUUCCAUUGGAAAGAAGUUCAGUGGUCCCAUUGUUAACUCAGCCUCAAAUCUCAACUGUCAGGCCCUACAAAGAAAAUGGAGAGCCUCUUCUGGUGGAUGC | 0.251 |
| CCAGAUACCAUGAUGCUGAGCCCGGAAACUCCACAUCCUGUGGGACCUGGGCCAUAGUCAUUCUGCCUGCCCUGAAAGUCCCAGAUCAAGCCUGCCUCAAUCAGUAUUCA | 0.424 |
| UGAAAAAUCUAUAUUUAUUAAAGGUAGUAGACAUUUGAAUAUAGUAAUCAAAUUAACUGAUUUUGUUUUCACCCUAAAUACAUACAACCAUUCCUCCACUUUCAUAAAUU | 0.899 |

Block 3
Target: Beta-1 adrenergic receptor (ADRB1, Homo sapiens, UniProt P08588)
Chain of UniProt P08588 (whole entry, looked up): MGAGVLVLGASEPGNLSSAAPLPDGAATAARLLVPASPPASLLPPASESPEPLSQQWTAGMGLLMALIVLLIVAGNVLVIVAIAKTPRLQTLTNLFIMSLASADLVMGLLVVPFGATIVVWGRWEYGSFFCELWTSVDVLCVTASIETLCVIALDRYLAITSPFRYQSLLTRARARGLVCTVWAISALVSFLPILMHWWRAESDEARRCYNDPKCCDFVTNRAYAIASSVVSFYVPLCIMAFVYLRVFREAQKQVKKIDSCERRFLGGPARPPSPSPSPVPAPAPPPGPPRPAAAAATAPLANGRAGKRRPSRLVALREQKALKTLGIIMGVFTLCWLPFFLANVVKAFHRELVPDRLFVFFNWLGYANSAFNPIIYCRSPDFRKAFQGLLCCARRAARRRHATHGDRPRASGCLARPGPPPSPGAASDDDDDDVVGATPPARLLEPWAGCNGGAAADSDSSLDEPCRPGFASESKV
Effect on: ligand displacement
Tested at: 10 µM
| SMILES | inhibition [%] |
| --- | --- |
| O=S(=O)(NC1CCC(c2cc(F)ccc2F)(S(=O)(=O)c2ccc(Cl)cc2)CC1)C(F)(F)F (centres unmarked) | -16.2 |
| O=C1NC(c2ccccn2)Sc2ccccc21 (centres unmarked) | -1.52 |
| CNC(=O)Nc1ccc2c(c1)CC[C@]21OC(=O)N(CC(=O)N(Cc2ccc(F)cc2)[C@@H](C)C(F)(F)F)C1=O | -5.22 |
| CCC(=NO)C(C)=Cc1ccc(F)c(C)c1 | 10.2 |
| Nc1nc(NCc2ccccc2)nc(-c2cccc(CO)c2)n1 | -3.07 |
| CN1CCN(c2ccnc(NCCc3ccccc3)n2)CC1 | 6.05 |
| CNC(=N)NCCC[C@H](NC(=O)[C@H](CC(C)C)NC(=O)NNC(=O)[C@H](Cc1ccccc1)NC(=O)[C@H](CO)NC(=O)[C@H](CC(N)=O)NC(=O)[C@@H](Cc1ccncc1)NC(=O)[C@H](N)Cc1ccc(O)cc1)C(=O)N[C@@H](Cc1ccccc1)C(N)=O | 0.557 |
| CCC(F)(F)c1cc(N2CCC(S(C)(=O)=O)CC2)nc2sc(C(N)=O)c(N)c12 | -8.38 |
| COc1cc(N[C@@H]2CCCC[C@]2(O)C(F)(F)F)ccc1F | -0.24 |
| CS(=O)(=O)N1CCCC(NC(=O)[C@H](CCC2CCCCC2)NC(=O)c2ccc(CNC(=O)c3cnc4ccccn34)cc2)C1 (some centres unmarked) | 20.3 |
| CN(C)c1ncnc(-c2ccc3nc(Nc4cc(CN5CCN(C(=O)CC(F)(F)F)CC5)ccn4)[nH]c3c2)c1Cl | -6.2 |
| CC1CCN(c2ccnc(NCc3cn(C)cn3)n2)CC1 | 3.97 |
| CC(=O)N1CCC(c2ccc(C(=O)NC3=NCCN3)cc2C(F)(F)F)CC1 | -18 |
| CC[C@H](CC(=O)O)n1c(=O)c2ncccc2n(Cc2cn(C)c3cc(C)cc(C)c23)c1=O | 10.4 |

Block 4
Cell line: mouse MPNST tumor cells
Technique: high-content nuclear imaging
Refers to: cell number
Tested at: 10 µM
Time: 12 h
Setting: mean of 2 replicates
Reference: plate mean
Reading: higher = more cells
| Structure (SMILES) | nuclei count [z-score] |
| --- | --- |
| CN(C)c1ccccc1CN1CCCN(Cc2ccccc2N(C)C)C1c1ccncc1 | -3.54 |
| COc1ccccc1S(=O)(=O)Nc1ccc2c(c1)CN(C)C(=O)N2 | -1.45 |
| O=C(NC1CC1)c1cc(-c2cccs2)on1 | 3.82 |

Other studies, line by line
| SMILES | cell line | tested at | time | quantity | result |
| --- | --- | --- | --- | --- | --- |
| CC(=O)OCC(=O)[C@@]12N=C(C)O[C@@H]1C[C@H]1[C@@H]3CCC4=CC(=O)C=C[C@]4(C)[C@H]3[C@@H](O)C[C@@]12C | A-375 | 100 µM | 36 h | viability | 101% |

A few entries again (block 3):
| SMILES | inhibition [%] |
| --- | --- |
| O=C1NC(c2ccccn2)Sc2ccccc21 (centres unmarked) | -1.52 |
| CNC(=O)Nc1ccc2c(c1)CC[C@]21OC(=O)N(CC(=O)N(Cc2ccc(F)cc2)[C@@H](C)C(F)(F)F)C1=O | -5.22 |
